Measured values pooled from the literature.
Every numbered part comes from another study and shows a few of its results, in no order. Substitutions count along the parent as printed.

Sample 1
Target: Sal-like protein 4, full length isoform A (SALL4, Homo sapiens, UniProt Q9UJQ4, residues 1-1053)
UniProt Q9UJQ4, sequence (whole entry, looked up): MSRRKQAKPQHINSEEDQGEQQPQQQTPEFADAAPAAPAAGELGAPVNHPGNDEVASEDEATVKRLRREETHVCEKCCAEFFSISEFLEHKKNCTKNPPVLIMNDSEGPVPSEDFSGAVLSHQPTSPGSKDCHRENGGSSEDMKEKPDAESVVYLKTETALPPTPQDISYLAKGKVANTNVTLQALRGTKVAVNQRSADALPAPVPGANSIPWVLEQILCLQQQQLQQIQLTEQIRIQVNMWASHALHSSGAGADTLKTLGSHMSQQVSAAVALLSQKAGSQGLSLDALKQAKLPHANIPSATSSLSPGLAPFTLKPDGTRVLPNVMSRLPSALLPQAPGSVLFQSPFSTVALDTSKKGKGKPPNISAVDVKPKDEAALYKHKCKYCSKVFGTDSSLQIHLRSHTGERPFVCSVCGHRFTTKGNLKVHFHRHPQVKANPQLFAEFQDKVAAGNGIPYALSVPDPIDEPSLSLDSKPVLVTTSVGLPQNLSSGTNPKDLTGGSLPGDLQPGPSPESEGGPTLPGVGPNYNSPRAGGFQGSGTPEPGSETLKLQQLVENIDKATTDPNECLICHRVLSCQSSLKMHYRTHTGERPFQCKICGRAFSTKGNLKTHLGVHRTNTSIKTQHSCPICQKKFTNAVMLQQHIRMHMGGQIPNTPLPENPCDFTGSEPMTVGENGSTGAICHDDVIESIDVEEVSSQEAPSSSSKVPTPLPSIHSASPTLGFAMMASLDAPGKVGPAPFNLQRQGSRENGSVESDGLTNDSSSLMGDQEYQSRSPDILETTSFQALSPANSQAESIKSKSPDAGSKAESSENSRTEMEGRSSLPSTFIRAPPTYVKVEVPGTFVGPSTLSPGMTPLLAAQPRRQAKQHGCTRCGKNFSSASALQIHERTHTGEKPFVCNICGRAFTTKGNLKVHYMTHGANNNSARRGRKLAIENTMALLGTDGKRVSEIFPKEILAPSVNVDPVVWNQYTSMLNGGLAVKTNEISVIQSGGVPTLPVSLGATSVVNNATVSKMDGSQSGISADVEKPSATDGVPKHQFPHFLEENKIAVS
Technique: universal PBM
Form: double-stranded DNA, one strand shown
Medium: in vitro
Concentration: 600 nM
Setting: 8-mer, flanks averaged, mean of replicates
Reading: higher = stronger binding
With `GCTCTCAC` the E-score was -0.27.
With `CCAAGAAA` the E-score was 0.117.
`ACAGAGTC` has an E-score of -0.108.
`CGATGCGA` gave an E-score of -0.17.
`GGCGTAAC` has an E-score of -0.121.
With `TGTCCACA` the E-score was 0.151.
`AGACTACC` has an E-score of -0.00912.
`GTGGTCTA` gave an E-score of -0.11.
For `ACCTTCGG`, the E-score was -0.0657.
`CTTGGTTC` has an E-score of 0.0369.
`GGAGGTTA` gave an E-score of -0.0174.
`ATTCAGTA` gave an E-score of 0.303.
With `GAGCTCAC` the E-score was -0.263.
`GGCTATAA` has an E-score of 0.244.
With `GACGGACA` the E-score was -0.156.
With `ACAATGAG` the E-score was 0.0839.
`CAGCCGTA` has an E-score of -0.196.

Sample 2
Target: Interferon regulatory factor 7, full length, phosphomimetic (IRF7, Homo sapiens, UniProt Q92985, residues 1-503, S101K/S471D/S472D/S475D/S476D/S477D/S483D/S484D/S487D)
UniProt Q92985, sequence (whole entry, unmodified, looked up): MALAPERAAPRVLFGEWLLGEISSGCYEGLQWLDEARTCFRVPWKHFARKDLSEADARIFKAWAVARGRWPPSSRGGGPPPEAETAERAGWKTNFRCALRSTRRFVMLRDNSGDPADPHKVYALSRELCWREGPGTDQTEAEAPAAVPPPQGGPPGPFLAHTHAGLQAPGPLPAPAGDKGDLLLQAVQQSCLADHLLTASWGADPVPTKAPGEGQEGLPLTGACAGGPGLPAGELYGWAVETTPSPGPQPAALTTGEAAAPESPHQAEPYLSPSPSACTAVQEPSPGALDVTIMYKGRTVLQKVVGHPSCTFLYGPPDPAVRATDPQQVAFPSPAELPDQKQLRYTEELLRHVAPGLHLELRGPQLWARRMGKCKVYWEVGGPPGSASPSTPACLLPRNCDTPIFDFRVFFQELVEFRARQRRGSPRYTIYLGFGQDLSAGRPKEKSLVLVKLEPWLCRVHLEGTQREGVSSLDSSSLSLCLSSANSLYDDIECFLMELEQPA
Technique: protein-binding microarray
Form: double-stranded DNA, one strand shown
Medium: in vitro
Concentration: 250 nM
Setting: 60-bp whole probe
Added: salmon DNA 0.4 mg/ml
Baseline: random background probes
Reading: higher = stronger binding
All sequences stand within: GCCTAGCAC … GTCTTGATTCGCTTGACGCTGCTG
For `TGAAATCTCTTTCCTTACTTGTGCTAG`, the log fluorescence was 1.14 z-score.
For `TACGATTTCAGTTCCGAGACGTGCTAG`, the log fluorescence was 0.603 z-score.
For `TTAGATTTCGGGACTGGATGAGTGCTA`, the log fluorescence was 0.249 z-score.
For `TTAGGACTGCTTAGCCTTTAGTGCTAG`, the log fluorescence was -0.0973 z-score.
The log fluorescence of `GACGGACTGTGTCTCGGGACGTGCTAG` is reported as -0.346 z-score.
With `TCAAATTTACTTTCTACACTGTGCTAG` the log fluorescence was 0.559 z-score.
The log fluorescence of `GCAAATATATCAGTGAATTTGTGCTAG` is reported as 0.0223 z-score.
For `CTGCCCTGGTTCCCCTGCCTGTGCTAG`, the log fluorescence was 0.607 z-score.
With `TCAGTTTTTGCTTTCCTACTGTGCTAG` the log fluorescence was 1.77 z-score.
`TTAGGTTACGACACTGGGTTAGTGCTA` gave a log fluorescence of -0.161 z-score.
`CACGAACTGAGTTTCGAGACGTGCTAG` gave a log fluorescence of 3.7 z-score.
With `TTAGATATCAGTTACGATTAGTGCTAG` the log fluorescence was 0.544 z-score.
For `TTAGATTTCAGTCTCGATTAGTGCTAG`, the log fluorescence was 2.01 z-score.
The log fluorescence of `TTAGGTTCCGGACTGGGTTAGTGCTAG` is reported as 0.945 z-score.
The log fluorescence of `GACGGTATCGGTATCCGGACGTGCTAG` is reported as 1.95 z-score.
`TCAGATTTCAGTTTCTCACTGTGCTAG` has a log fluorescence of 1.55 z-score.
`TTCATTTTCCAAATGCCCTCGTGCTAG` has a log fluorescence of 1.44 z-score.
With `GACGGTTTCCTCCTGCTGACGTGCTAG` the log fluorescence was 1.46 z-score.
With `GACGATATCAGTTACGAGACGTGCTAG` the log fluorescence was -0.0455 z-score.

Sample 3
Target: CCND1, cyclin fold, Cln2 fusion (human)
Technique: yeast growth competition, sequencing
Medium: yeast
Setting: weak parent motif
Baseline: not given
Reading: higher = stronger binding
Starting sequence: SAMHD1 docking peptide (human); ASKSRVQLFKDDP
`ASKSRVELFKDDP [Q7E]` — result for “normalised enrichment score”: 0.572.
`ASKGRVQLFKDDP [S4G]` — result for “normalised enrichment score”: 0.273.
`ASKSRVQNFKDDP [L8N]`: “normalised enrichment score” 0.172.
`ASKSRCQLFKDDP [V6C]` — result for “normalised enrichment score”: 0.146.
`ASKCRVQLFKDDP [S4C]` — result for “normalised enrichment score”: 2.18.
`ASKSRVQIFKDDP [L8I]` — result for “normalised enrichment score”: -0.14.
Under “normalised enrichment score”, `ASKSRVQLFGDDP [K10G]` is recorded as 0.275.
`ASKSYVQLFKDDP [R5Y]`: “normalised enrichment score” 0.325.
Under “normalised enrichment score”, `ASKSRVQLSKDDP [F9S]` is recorded as 0.00696.
`ASKFRVQLFKDDP [S4F]`: “normalised enrichment score” 0.402.
Under “normalised enrichment score”, `ASKSRVQLCKDDP [F9C]` is recorded as 0.0554.
Under “normalised enrichment score”, `ASKSRVCLFKDDP [Q7C]` is recorded as 0.444.
For `ASKSRVQLIKDDP [F9I]`, “normalised enrichment score” read 0.254.
Under “normalised enrichment score”, `ASKSRVQLFKIDP [D11I]` is recorded as 0.0715.
`AHKSRVQLFKDDP [S2H]`: “normalised enrichment score” 0.634.
`ASKSEVQLFKDDP [R5E]`: “normalised enrichment score” 0.789.
`ASKSRAQLFKDDP [V6A]`: “normalised enrichment score” 0.294.
Under “normalised enrichment score”, `ASKSRVLLFKDDP [Q7L]` is recorded as 0.375.
Under “normalised enrichment score”, `ASKSRVQYFKDDP [L8Y]` is recorded as 0.0622.
Under “normalised enrichment score”, `ASKSRVQLFKDSP [D12S]` is recorded as 0.572.
`AIKSRVQLFKDDP [S2I]`: “normalised enrichment score” 0.694.
For `ASKSRVQHFKDDP [L8H]`, “normalised enrichment score” read -0.172.
`ASKSRVQLDKDDP [F9D]`: “normalised enrichment score” 0.444.
`ASKSRVQLFTDDP [K10T]` — result for “normalised enrichment score”: 0.391.
For `ASKYRVQLFKDDP [S4Y]`, “normalised enrichment score” read 0.381.

Sample 4
Target: Ras GTPase-activating protein-binding protein 1, full length (G3BP1, Homo sapiens, UniProt Q13283)
UniProt Q13283, sequence (whole entry, looked up): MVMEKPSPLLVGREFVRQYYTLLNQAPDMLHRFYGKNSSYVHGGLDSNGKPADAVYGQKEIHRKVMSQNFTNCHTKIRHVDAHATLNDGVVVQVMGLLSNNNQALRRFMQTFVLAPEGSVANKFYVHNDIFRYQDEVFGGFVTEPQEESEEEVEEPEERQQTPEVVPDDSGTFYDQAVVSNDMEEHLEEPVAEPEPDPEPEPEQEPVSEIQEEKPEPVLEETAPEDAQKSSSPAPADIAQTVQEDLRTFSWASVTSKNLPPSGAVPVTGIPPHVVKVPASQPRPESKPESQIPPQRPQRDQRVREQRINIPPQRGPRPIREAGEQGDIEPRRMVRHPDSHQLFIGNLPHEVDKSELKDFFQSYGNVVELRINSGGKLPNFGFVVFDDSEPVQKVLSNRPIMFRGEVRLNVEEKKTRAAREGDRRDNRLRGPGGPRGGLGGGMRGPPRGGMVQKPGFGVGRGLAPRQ
Technique: RNA Bind-n-Seq
Form: RNA
Medium: in vitro
Concentration: 200 nM
Setting: whole 134-nt RNA, ends assumed
Added: 150 mM LiCl
Baseline: input library
Reading: higher = stronger binding
All molecules: 7-deaza-guanosine replaces G
All sequences stand within: GGGAGUUCUACAGUCCGACGAUC … UGGAAUUCUCGGGUGUCAAGG
The log2 enrichment of `AGUCCUGUGCUACACAUCGUAUGUACCGAAUCGGGAAAAAGGGGAAAAAGGAAAAAGGAAAGUAUUAUGUUACGCCGUUCGGAUCUGCAC` is reported as -0.204.
With `UGGGAGGUGGAUUUUGUUUAUUUCUUUAGCUCAUUUCCAGGGGUGGGAAUUUUUUUUUAAUAUGUGUCAUGAAUAAAGUUGUUUUUGAAA` the log2 enrichment was -0.879.
For `UUCCUCAAGUCCUGUGCUACACAUCGUAUGUACCGAAUCGGAGGUGGAGGAAAGUAUUAUGUUACGCCGUUCGGAUCUGCACUUCCAGCA`, the log2 enrichment was -1.55.
`CACAGACAACACGCACCCACACAGACACAGAGGGAAGGGGUUAGGAUGGGGACAGGGUGCACAGCAGGGCGGGGUAGGACCCCAGCCCCU` has a log2 enrichment of -1.11.
The log2 enrichment of `CUCAAGUCCUGUGCUACACAUCGUAUGUACCGAAUCGGGUGGGGUGGGUGGGGAAAGUAUUAUGUUACGCCGUUCGGAUCUGCACUUCCA` is reported as 0.286.
`AAGUCCUGUGCUACACAUCGUAUGUACCGAAUCGGGGAAAAGGGAAAAGGGAAAAGGAAAGUAUUAUGUUACGCCGUUCGGAUCUGCACU` gave a log2 enrichment of 0.147.
`CUCAAGUCCUGUGCUACACAUCGUAUGUACCGAAUCGGCCGGGCCGGGGCCGGGAAAGUAUUAUGUUACGCCGUUCGGAUCUGCACUUCC` gave a log2 enrichment of 0.446.
`AAGUCCUGUGCUACACAUCGUAUGUACCGAAUCGGGUGGGAAAGGGAAAAAAAGGGAAAGUAUUAUGUUACGCCGUUCGGAUCUGCACUU` gave a log2 enrichment of 0.233.

A few entries again (sample 2):
With `GACGGTTTCCTCCTGCTGACGTGCTAG` the log fluorescence was 1.46 z-score.
`TTCATTTTCCAAATGCCCTCGTGCTAG` has a log fluorescence of 1.44 z-score.
The log fluorescence of `TTAGGTTCCGGACTGGGTTAGTGCTAG` is reported as 0.945 z-score.
For `TTAGGACTGCTTAGCCTTTAGTGCTAG`, the log fluorescence was -0.0973 z-score.
